# Measured values pooled from the literature.
# A part holds a random share of what one study measured. Changes are numbered by the printed parent chain.

# Series 1 — technique: universal PBM; molecule type: double-stranded DNA, one strand shown; sample: in vitro; concentration: not given; direction: higher = stronger binding
# Target: Sal-like protein 4, full length isoform B (SALL4, Homo sapiens, UniProt Q9UJQ4-2, residues 1-616)
# Notes: 8-mer, flanks averaged, mean of replicates
# Target sequence (chain): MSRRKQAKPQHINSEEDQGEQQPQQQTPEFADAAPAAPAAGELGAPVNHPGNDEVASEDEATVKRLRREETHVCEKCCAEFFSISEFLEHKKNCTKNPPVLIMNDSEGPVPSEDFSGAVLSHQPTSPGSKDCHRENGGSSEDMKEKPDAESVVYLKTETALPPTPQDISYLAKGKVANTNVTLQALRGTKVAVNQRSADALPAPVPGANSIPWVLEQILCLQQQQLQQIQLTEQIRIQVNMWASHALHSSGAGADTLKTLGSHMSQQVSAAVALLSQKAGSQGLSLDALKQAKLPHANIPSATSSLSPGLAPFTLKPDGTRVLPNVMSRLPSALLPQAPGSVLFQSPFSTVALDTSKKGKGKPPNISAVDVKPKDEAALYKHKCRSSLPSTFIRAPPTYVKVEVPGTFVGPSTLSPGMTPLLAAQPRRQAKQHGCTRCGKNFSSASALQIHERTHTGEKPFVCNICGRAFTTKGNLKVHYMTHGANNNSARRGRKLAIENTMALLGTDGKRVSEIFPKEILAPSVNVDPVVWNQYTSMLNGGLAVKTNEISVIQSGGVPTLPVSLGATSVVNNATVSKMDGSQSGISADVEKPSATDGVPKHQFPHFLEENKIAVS
Sequence,E-score
ATGTTAAC,0.2
CTGGGGTC,-0.287
ATAGCGGC,-0.158
ACGAGTAA,0.0994
AGAAAGCA,0.0472
ACAACGTA,0.0481
CTCCACTA,-0.159
CTCTTTTC,0.00183
AAACACAC,0.0258
CGCCGCCC,-0.41
AGTTAACG,0.0975
ACAGTTCA,0.151
ACAGCAAT,0.237
AGGTGACC,-0.212

# Series 2 — target: UBE2G1 UBC core domain (UniProt P62253); technique: yeast two-hybrid; sample: yeast; notes: mostly zero background; baseline: not given; direction: higher = stronger interaction
# B1: SYTL4 RING domain (UniProt Q96C24); chain RGSQHYSDRTCARCQESLGRLSPKTNTCRGCNHLVCRDCRIQESNGTWRCKVCAKEIELKKAT
# B2: DZIP3 RING domain (UniProt Q86Y13); chain PDEEEEEEEPCVICHENLSPENLSVLPCAHKFHAQCIRPWLMQQGTCPTCRLHVLLPEEFP
# B3: RFWD3 RING domain (UniProt Q6PCD5); chain ASMDEEEGDTCTICLEQWTNAGDHRLSALRCGHLFGYRCISTWLKGQVRKCPQCNKKARHSDIVV
# Target sequence (chain): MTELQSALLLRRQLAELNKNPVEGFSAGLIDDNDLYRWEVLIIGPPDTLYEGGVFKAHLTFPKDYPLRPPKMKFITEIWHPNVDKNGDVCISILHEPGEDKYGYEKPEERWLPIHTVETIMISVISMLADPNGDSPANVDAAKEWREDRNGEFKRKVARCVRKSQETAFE
Sequence,lacZ reporter activity
B1 (SYTL4 RING domain),0
B2 (DZIP3 RING domain),0
B3 (RFWD3 RING domain),0
GSRLQEINDVCAICYHEFTTSARITPCNHYFHALCLRKWLYIQDTCPMCHQKVYIEDDIK (RNF139 RING domain (UniProt Q8WU17)),0

# Series 3 — technique: RNA Bind-n-Seq; molecule type: RNA; sample: in vitro; concentration: 365 nM; baseline: no-protein control; direction: higher = stronger binding
# Target: RNA binding protein fox-1 homolog 2, RRM domain, GST-SBP tag (RBFOX2, Homo sapiens, UniProt O43251-10, residues 100-194)
# Notes: natural RNA segment, single round, ends assumed
# All sequences stand within: GGGAGUUCUACAGUCCGACGAUC … UGGAAUUCUCGGGUGCCAA
# Construct (chain): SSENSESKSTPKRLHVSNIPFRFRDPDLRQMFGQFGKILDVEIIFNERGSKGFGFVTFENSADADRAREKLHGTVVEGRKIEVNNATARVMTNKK
Sequence,RBNS enrichment (R)
UGAAUCUAACAGACAUUUGAUUUAAUGUACACUCCCUUUUGCUUAUAGUGUGCAUUUUUUUUGGAGGUCAUUCAAAUUUUCCCUCUUCUGUGAUAGCUGUAGUUUCUUUC,1.08
AUUAAUGACUUAUCCAACCCUGUUUUUCUAAAAAGAAAGGUAACAGGCAAAAAGUGUGUUGCCGAGGCCUCUUGGCUCUUGAGUAGCAGAGCUGAGACUGGUUCCCUGAU,0.294
UCAUCUUGCCAGAACAAGCUCUCAGCAGCCCAGGAACAGUCCAUGGCCUUCUCAGGCCUGGCCCUUUUCAUCAGAUACAAGGGCCAGGAGACCAGACUCUUGCUUCUGAU,0.271
GAAAAUCACACCACCUGACAGGCCUUCUGGGCCUCCAAAGCCCAUCCUUGGGGUUCCCCCUCCCUGUGUGAAAUGUAUUAUCACCAGCAGACACUGCCGGGCCUCCCUCC,0.315
AAAAUAUACAAUCAAGAUAUUUCGUCUCAUAUUAAAAGAGAAAUCUCAAUCACAGUGUUGGCUUUUAUUUGGAUUUUGCUCAUCUCGGUCUUUGUUUGGAAACUCCCUCA,0.458
UUCUUCUGCCUUUAAAAUGCCACCCGUGUAUUCAAACCAUGGCCACUUGAUACUUAUGUAGAAUCCAUCGUGGGCUGAUGCAAGCCCUUUAUUUAGGCUUAGUGUUGUGG,0.883

# Series 4 — technique: RNA Bind-n-Seq; molecule type: RNA; sample: in vitro; concentration: 1 µM; notes: whole 134-nt RNA, ends assumed; together with: 150 mM KCl; baseline: input library; direction: higher = stronger binding
# Target: Ras GTPase-activating protein-binding protein 1, RRM domain (G3BP1, Homo sapiens, UniProt Q13283)
# Chain of UniProt Q13283 (whole entry, looked up): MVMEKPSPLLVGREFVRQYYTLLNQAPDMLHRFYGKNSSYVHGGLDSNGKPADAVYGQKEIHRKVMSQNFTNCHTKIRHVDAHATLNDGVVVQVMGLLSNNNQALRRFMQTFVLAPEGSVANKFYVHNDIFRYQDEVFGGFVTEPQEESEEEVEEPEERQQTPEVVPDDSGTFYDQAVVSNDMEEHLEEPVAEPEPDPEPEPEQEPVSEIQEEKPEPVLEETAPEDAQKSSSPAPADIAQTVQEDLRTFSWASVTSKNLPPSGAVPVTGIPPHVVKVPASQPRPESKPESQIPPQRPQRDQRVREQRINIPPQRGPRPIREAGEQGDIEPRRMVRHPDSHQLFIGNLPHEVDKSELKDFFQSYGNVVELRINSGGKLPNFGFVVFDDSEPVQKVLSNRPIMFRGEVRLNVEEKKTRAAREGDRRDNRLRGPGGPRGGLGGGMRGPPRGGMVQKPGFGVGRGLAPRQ
Sequence,log2 enrichment
GGGAGUUCUACAGUCCGACGAUCCCUGUGCUACACAUCGUAUGUACCGAAUCGGGCCCCCCGGGGCCCCCCGGGGCCCCCCGGGAAAGUAUUAUGUUACGCCGUUCGGAUCUGUGGAAUUCUCGGGUGUCAAGG,-0.653
GGGAGUUCUACAGUCCGACGAUCCCUCAAGUCCUGUGCUACACAUCGUAUGUACCGAAUCGGUUGGGUUGGUUGGAAAGUAUUAUGUUACGCCGUUCGGAUCUGCACUUCCAGUGGAAUUCUCGGGUGUCAAGG,-0.245
GGGAGUUCUACAGUCCGACGAUCACCAUGCAGGUGGGCAUCUUUGGGAAGUGGGGCAAGGGGGGGAUAGGGAGGGGGGUAACACUUUGGGAACAGGUGGUCCCAGGUCGGUUCUGGAAUUCUCGGGUGUCAAGG,0.438
GGGAGUUCUACAGUCCGACGAUCAGUCCUGUGCUACACAUCGUAUGUACCGAAUCAAACCCCCAAACCCCCAAACCCAAAAAAGUAUUAUGUUACGCCGUUCGGAUCUGCACUUGGAAUUCUCGGGUGUCAAGG,-0.192

# Series 5 — target: CCNA2, cyclin fold, Cln2 fusion (human); technique: yeast growth competition, sequencing; sample: yeast; notes: strong parent motif; baseline: not given; direction: higher = stronger binding
# Starting sequence: PKN2 docking peptide (human); VSAVQKLDFSDTM; partner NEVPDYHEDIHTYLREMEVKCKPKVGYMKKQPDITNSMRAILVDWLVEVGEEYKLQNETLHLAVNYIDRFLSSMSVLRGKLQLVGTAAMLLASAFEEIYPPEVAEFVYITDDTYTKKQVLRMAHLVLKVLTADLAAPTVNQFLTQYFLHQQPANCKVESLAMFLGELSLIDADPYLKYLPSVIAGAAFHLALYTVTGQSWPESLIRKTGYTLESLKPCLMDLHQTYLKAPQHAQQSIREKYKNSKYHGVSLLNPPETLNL
Variant,normalised enrichment score
K6M,0.874
A3S,0.575
S2N,2.29
K6P,-0.011
T12F,1.99
D11Y,1.37
D11L,1.74
M13Q,1.99
T12A,2.26
S10M,1.3

# Series 6 — technique: protein binding microarray; molecule type: double-stranded DNA, one strand shown; sample: in vitro; concentration: not given; baseline: not given; direction: higher = stronger binding
# Target: Histone acetyltransferase KAT6A, both winged helices, GST fusion (KAT6A, Homo sapiens, UniProt Q92794, residues 1-181)
# Notes: 8-mer, flanks averaged, mean of 2 arrays, mostly near background
# Target sequence (chain): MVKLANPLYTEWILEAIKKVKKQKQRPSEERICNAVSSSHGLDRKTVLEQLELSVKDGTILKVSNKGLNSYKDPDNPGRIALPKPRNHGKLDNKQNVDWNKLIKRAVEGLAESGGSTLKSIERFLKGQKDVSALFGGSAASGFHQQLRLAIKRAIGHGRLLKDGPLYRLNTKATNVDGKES
Sequence,E-score
CCGTTTTA,0.137
ATATCGCA,-0.024
TCTATGAA,-0.075
CCAGACGA,-0.0821
ATTTTTAC,-0.102
AGAACATA,0.0167
ATTTGGTA,-0.076
CAGCTTAA,-0.0297
CACTAGTG,0.0426
AAGACAAT,-0.103
CTGTCCCC,-0.124
GCCTTCGA,-0.00624

# Mixed results — technique: cross-linking MS
Substance,partner,sample,notes,together with,measurement,result
"HSP90AB1 (Homo sapiens, UniProt P08238)","MYH9 (Homo sapiens, UniProt P35579)",,hits only,,interaction screen,cross-linked
"KIF5B (Homo sapiens, UniProt P33176)","KLC2 (Homo sapiens, UniProt Q9H0B6)",cell fractions,,DMTMM,cross-linked residues,K801 to E66

# Repeated from above (series 5):
Variant,normalised enrichment score
S2N,2.29
M13Q,1.99
T12F,1.99
S10M,1.3
K6M,0.874
D11L,1.74
T12A,2.26
